Assay results of several laboratories.
Lines come from different studies, so protocols differ. Values joined by “and” are separate records of one study, mostly repeats; a detail may differ. ± marks the error that the study gave. ≈ marks a conversion by molar mass, not a printed value.

| SMILES | tested on | assay | system | conditions | scale | quantity | value |
| --- | --- | --- | --- | --- | --- | --- | --- |
| CCCCC1(CCCC)CN(c2ccccc2)c2cc(SC)c(OCC(=O)N[C@@H](C(=O)NCC(=O)O)c3ccccc3)cc2S(=O)(=O)C1 | – | refers to: LDL cholesterol | human, serum | 20 mg once daily, day 2 | – | serum LDL-C | 100 mg/dL |
| O=C(NNc1ccc(Cl)c(Cl)c1)c1nnc(C23CC4CC(CC(C4)C2)C3)o1 | Fusarium graminearum | fungal growth, inhibitor | – | – | – | EC50 | > 25 µg/mL |
| CN1CCN(S(=O)(=O)c2cc([N+](=O)[O-])ccc2N(CCOS(C)(=O)=O)CCOS(C)(=O)=O)CC1 | – | – | NSG mice, sample BF PDX | intraperitoneal, 25 mg/kg weekly x3 | baseline: vehicle | EFS delay (T-C) | 0.2 days |
| C[C@H]1O[C@@H](O[C@H]2CC[C@@]3(C)[C@@H](CC[C@]4(C)[C@@H]3C=C[C@]35OC[C@@]6(CCC(C)(C)C[C@H]63)[C@@H](O)C[C@]54C)[C@]2(C)CO)[C@H](O)[C@@H](O[C@@H]2O[C@H](CO)[C@@H](O)[C@H](O)[C@H]2O)[C@H]1O | – | Western blot, refers to: PPAR-α | mouse, hepatic SIRT1 knockdown (AAV8-TBG), liver | dose not given, high dose, unit not given, together with: ethanol | baseline: β-actin | protein level | 0.219 and 0.212 and 0.328 |
| NCCc1ccc(Oc2ccc(O)cc2)c(I)c1 | human H+/organic cation antiporter | – | hCMEC/D3 | 250 µM, 2 min, together with: 1 µM DPH preloading 30 min | baseline: control | trans-stimulation ratio | 0.86 |
| C[C@]12CC[C@H]3[C@@H](CC=C4CC(O)CC[C@@]43CO)[C@@H]1CCC2O (stereo partly drawn) | – | refers to: TSPO, CYP27A1 | rat, GAN diet-induced MASH, liver | dose not given | baseline: GAN diet plus vehicle | protein level | decreased |
| CS(=O)(=O)CCCn1c(Cn2c(=O)n(CC(F)(F)F)c3ccncc32)cc2cc(Cl)ccc21 | respiratory syncytial virus | RT-qPCR | hospitalized infants 1-24 months, nasal swab | oral, 8 mg/kg daily, day 5, cohort 6-24 months | baseline: placebo | LS mean difference vs placebo | 0.4 log10 copies/mL |
| O=C(NNc1ccc(F)c(F)c1)c1nnc(C23CC4CC(CC(C4)C2)C3)o1 | Fusarium graminearum | fungal growth, inhibitor | – | – | – | EC50 | 0.8 ± 0.17 µg/mL (≈ 2.14 µM) |
| C[C@H](C(=O)N[C@H]1COc2ccccc2[C@@H]1S(C)(=O)=O)c1ccc(F)cc1 | GABAA central, rat | binding | – | 10 µM, Eurofins selectivity panel, together with: muscimol | – | inhibition | 7% |
| NC1CC1c1ccc(NC(=O)C(Cc2ccccc2)NC(=O)OCc2ccccc2)cc1 (stereo not drawn) | MV4-11 | – | – | concentration not given | – | growth arrest | ~50% |
| COc1cc(CCC[P+](c2ccccc2)(c2ccccc2)c2ccccc2)c(OC)c2c1OCO2.[I-] | HOP-92 | SRB | – | – | – | TGI | -5.16 log M |
| COc1ccc(-n2nc(C(C)=O)s/c2=N\N=C(/C)c2ccc(NC(C)=O)cc2)cc1 | HepG2 | – | – | 10 µM | – | toxicity | 93.9% |
| CC(C)N1CCC(NC2CCN(c3cccc(-c4cc5cc(F)ccc5[nH]4)c3)CC2)CC1 | M14 | – | – | – | – | GI50 | 1750 nM |
| CC[C@H](C)[C@H](NC(=O)[C@H](C)NC(=O)[C@H](CCCCN)NC(=O)[C@H](CC(C)C)NC(=O)[C@H](C)NC(=O)[C@@H](NC(=O)[C@H](Cc1c[nH]cn1)NC(=O)[C@H](CC(C)C)NC(=O)[C@@H](NC(=O)[C@@H](NC(=O)[C@H](CCCCN)NC(=O)[C@H](C)NC(=O)[C@H](C)NC(=O)[C@H](CO)NC(=O)[C@H](CCCCN)NC(=O)[C@H](Cc1ccccc1)NC(=O)[C@@H](NC(=O)[C@H](CCCCN)NC(=O)[C@H](CC(C)C)NC(=O)[C@H](Cc1ccccc1)NC(=O)[C@H](CO)NC(=O)[C@H](CCCCN)NC(=O)[C@H](Cc1c[nH]c2ccccc12)NC(=O)[C@H](CCCCN)NC(C)=O)[C@@H](C)O)[C@@H](C)O)C(C)C)[C@@H](C)O)C(=O)N[C@@H](CO)C(=O)N[C@@H](CO)C(N)=O | Enterobacter cloacae | – | – | range over strains | – | MBC | 4 µg/mL (≈ 1.36 µM) |
| CC[C@H](C)[C@@H]1NC(=O)[C@@H]2CCCN2C(=O)[C@H](CC(C)C)NC(=O)[C@H](CC(C)C)NC(=O)CNC(=O)[C@@H](NC(=O)[C@@H](NC(=O)[C@H](CC(=O)O)NC(=O)CNC(=O)[C@@H](NC(=O)[C@H](C)NC(=O)CNC(=O)[C@H](CCCCN)NC(=O)[C@H](CC(C)C)NC(=O)[C@H](CC(C)C)NC(=O)[C@H](CCCCN)NC(=O)CNC(=O)[C@@H](NC(=O)[C@@H](N)CC(C)C)C(C)C)C(C)C)C(C)C)CSSC[C@@H](C(=O)O)NC1=O | – | RNA-seq, refers to: Ttc14 | mouse, traumatic brain injury model, frontal cortex and hippocampus | dose not given | baseline: TBI alone | log2 fold change | 0.579 |
| CN1CCN(C2(CNC3CCN(c4cccc(-c5cc6cc(F)ccc6[nH]5)c4)CC3)CCC2)CC1 | M14 | – | – | – | – | GI50 | 1470 nM |
| c1ccc(C(NCCNC(c2ccccc2)c2ccccc2)c2ccccc2)cc1 | 5-HT2 receptor, rat | binding | – | 10 µM, Eurofins selectivity panel | – | inhibition | 44% |
| COc1c(CCC[P+](c2ccccc2)(c2ccccc2)c2ccccc2)cc2c(c1OC)OCO2.[I-] | HOP-62 | SRB | – | – | – | LC50 | -4.15 log M |

Some of these lines once more:
| SMILES | tested on | assay | system | conditions | scale | quantity | value |
| --- | --- | --- | --- | --- | --- | --- | --- |
| CCCCC1(CCCC)CN(c2ccccc2)c2cc(SC)c(OCC(=O)N[C@@H](C(=O)NCC(=O)O)c3ccccc3)cc2S(=O)(=O)C1 | – | refers to: LDL cholesterol | human, serum | 20 mg once daily, day 2 | – | serum LDL-C | 100 mg/dL |
